# Experimental data of several laboratories.
# Parts stem from different laboratories: compare values within a part only. Positions count from the first letter of the parent shown.

# Sample 1 — target: NFE2L2, bZIP domain (human); method: DHFR protein complementation; sample: yeast; baseline: wild-type JUN-FOS pair; reading: higher = stronger binding
# Notes: single substitutions, most at no-binding floor
# Starting sequence: JUN, bZIP domain (human); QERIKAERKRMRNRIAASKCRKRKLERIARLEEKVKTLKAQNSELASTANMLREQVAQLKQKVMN; partner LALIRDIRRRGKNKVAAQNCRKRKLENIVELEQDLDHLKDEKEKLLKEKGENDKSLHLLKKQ
Variant,binding fitness
V35Q,-1.34 natural log
A57Q,-1.52 natural log
E44H,-1.47 natural log
L31S,-1.48 natural log
L52I,-1.34 natural log
L45P,-1.52 natural log
I28Y,-1.36 natural log
L31A,-1.49 natural log
K36A,-1.34 natural log
L38A,-1.35 natural log
K34P,-1.51 natural log
K36T,-1.51 natural log
L52D,-1.46 natural log
K34C,-1.35 natural log
E54Q,-1.62 natural log
A57R,-1.19 natural log
A29D,-1.42 natural log
R30C,-1.27 natural log
Q41L,-1.25 natural log
L31V,-1.33 natural log
E33M,-1.52 natural log
A49R,-1.45 natural log
V56T,-1.44 natural log
K39A,-1.51 natural log
Q41D,-1.48 natural log

# Sample 2 — cell line: yeast with cyclin B3-Cln2 chimera; effect on: cell growth; mode: binder; method: competitive growth deep sequencing; molecule type: peptide; concentration: concentration not given; notes: peptide tiling library; reading: direction not given
Molecule,growth enrichment score
VEEEFFALRKRTPSAG,0.882
ARKRLELGNLGNPQ,-0.812
ALLRRLQDVANDRGSH,-0.147
CFRCLLFSFSGRSGVE,-0.938
RSLKLDGLLEEN,-2.52
RDLFDCDFGDLTPLDF,0.245
KPKPVKPVTFSTGIKM,-0.818
EPKTLFLGAGDFQF,0.712
LRRKLFLDGNGSIS,0.448
KPHVSDEEEEEPPFYH,1.08
DKYDEGLYRFNSLNDL,0.192
ESSTVSEEDYFSSHRD,0.173
GLPDFVFQQQPVESEA,0.331
IQKKLRFEDTLEFVGF,-0.376
QYQVVDDIVSKLVFDF,0.611

# Sample 3 — method: universal PBM; molecule type: double-stranded DNA, one strand shown; sample: in vitro; concentration: not given; reading: higher = stronger binding
# Target: Sal-like protein 4, full length isoform B (SALL4, Homo sapiens, UniProt Q9UJQ4-2, residues 1-616)
# Notes: 8-mer, flanks averaged, mean of replicates
# Construct (chain): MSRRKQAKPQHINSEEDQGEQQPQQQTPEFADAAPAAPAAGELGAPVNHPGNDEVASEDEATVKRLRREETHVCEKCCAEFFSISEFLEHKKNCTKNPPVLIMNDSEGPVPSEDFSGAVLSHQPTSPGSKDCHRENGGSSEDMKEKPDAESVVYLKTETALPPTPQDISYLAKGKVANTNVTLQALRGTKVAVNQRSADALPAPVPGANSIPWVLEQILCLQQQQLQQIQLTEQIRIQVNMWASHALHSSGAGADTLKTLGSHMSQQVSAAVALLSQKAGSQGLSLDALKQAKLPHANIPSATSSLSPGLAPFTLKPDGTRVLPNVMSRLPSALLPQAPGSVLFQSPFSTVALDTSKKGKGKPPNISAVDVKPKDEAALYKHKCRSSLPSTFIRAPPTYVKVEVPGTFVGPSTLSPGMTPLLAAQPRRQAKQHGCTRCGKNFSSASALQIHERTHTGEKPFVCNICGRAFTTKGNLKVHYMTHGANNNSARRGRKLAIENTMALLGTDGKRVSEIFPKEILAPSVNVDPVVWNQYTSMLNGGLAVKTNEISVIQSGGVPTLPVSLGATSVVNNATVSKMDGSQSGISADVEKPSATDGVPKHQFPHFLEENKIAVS
Strand,E-score
GATATGCC,-0.0624
GCACAGCA,-0.145
GGATTGCC,-0.236
AGGTCTTG,-0.163
CTGGTCCC,-0.276
GCTCAGAC,-0.195
ATGACTGA,-0.00653
ACGCGCAG,-0.331
GCAGGTCC,-0.295
ACGTAGTG,-0.075
CATAAGTC,0.188
AGAAGCAA,0.092
CACATCAG,-0.152
CGGAGCAC,-0.176
GTCTTCTA,0.121
AAGTATCA,0.121
GGATCGAC,-0.262

# Sample 4 — method: DHFR PCA, deep sequencing; sample: yeast; together with: (+)-ABA 0.39 µM; baseline: wild-type fitted maximum; reading: higher = stronger binding
# Target: ABI1, truncated, D143A, DHFR fusion (Arabidopsis thaliana)
# Notes: methotrexate growth selection, single substitutions
# Starting sequence: PYL1, truncated, DHFR fusion (Arabidopsis thaliana); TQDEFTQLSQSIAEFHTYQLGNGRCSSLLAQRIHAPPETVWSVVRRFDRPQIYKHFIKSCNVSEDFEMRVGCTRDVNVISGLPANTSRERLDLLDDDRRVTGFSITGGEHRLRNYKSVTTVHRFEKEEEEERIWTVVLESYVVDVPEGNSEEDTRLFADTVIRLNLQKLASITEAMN; partner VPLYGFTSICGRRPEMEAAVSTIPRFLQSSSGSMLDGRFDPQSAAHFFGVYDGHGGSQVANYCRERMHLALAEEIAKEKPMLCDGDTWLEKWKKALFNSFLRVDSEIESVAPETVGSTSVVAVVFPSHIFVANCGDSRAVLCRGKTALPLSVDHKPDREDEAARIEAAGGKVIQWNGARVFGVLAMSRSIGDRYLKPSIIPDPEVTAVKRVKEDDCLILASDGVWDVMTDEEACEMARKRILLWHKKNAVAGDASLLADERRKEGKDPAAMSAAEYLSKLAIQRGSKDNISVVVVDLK
Variant,relative binding score
V100S,-2.39%
L8R,0.0479%
H16K,-2.73%
R99E,-0.248%
H122G,-4.12%
L82N,10.2%
V62P,-13.2%
H110Y,11%
V136M,30.1%
T86Y,56.3%
L94I,13.6%
E14T,13%
E38Y,-1.74%
S59F,6.8%
L164T,66.8%
N85H,62.6%
V78D,-3.4%
R69P,-3.57%
V40N,-5.49%

# Sample 5 — method: aptamer microarray, sandwich; molecule type: DNA with 2'F-ANA; sample: in vitro; concentration: 200 nM; together with: Cy3 exosite-II aptamer, 400 nM; reading: higher = stronger binding; strand: GGTTGGTGTGGTTGG
# Target: Prothrombin, mature alpha-thrombin (F2, Homo sapiens, UniProt P00734)
# Notes: whole 15-mer aptamer, many near background
Modification,mean fluorescence intensity [a.u.]
2'F-ANA at 4 5 6 8 9 10 13 14,44.3
2'F-ANA at 1 2 4 5 6 7 9 11 12 13 15,61.4
2'F-ANA at 1 2 4 6 9 12 13 14,53.8
2'F-ANA at 1 2 7 9 11,136
2'F-ANA at 2 8 9 10 12 13,180
2'F-ANA at 1 2 5 10 12 14,47.7
2'F-ANA at 3 4 5 6 7 9 11 14 15,51.3
2'F-ANA at 3 5 6 7 11 12,162
2'F-ANA at 1 2 3 4 5 7 8 9 10 11 12 13 14 15,49.1
2'F-ANA at 1 5 7 8 10 12 13,50.6
2'F-ANA at 2 14 15,169
2'F-ANA at 2 3 4 5 8 10 11 13 15,68.5
2'F-ANA at 1 2 3 4 10 11 13 14,66.3
2'F-ANA at 3 4 7 9 10,300
2'F-ANA at 1 4 7 10 11 12,56.4
2'F-ANA at 2 4 7 8 9 13 15,209
2'F-ANA at 3 4 5 6 8 10 14 15,62.1
2'F-ANA at 2 4 5 6 8 9 12 14 15,46.8
2'F-ANA at 2 4 5 6 11 13 15,54.8
2'F-ANA at 1 2 7 10 11 12 13 14 15,69.9
2'F-ANA at 1 3 5 6 7 9 12,124
2'F-ANA at 2 3 4 5 6 8 9 10 11 12 13 14 15,61.4
2'F-ANA at 3 4 5 8 12,240
2'F-ANA at 1 3 5 6 9 10 12 13 14,47.4
2'F-ANA at 1 2 4 5 9 10 12 14,45.6

# Sample 6 — method: protein-binding microarray; molecule type: double-stranded DNA, one strand shown; sample: in vitro; concentration: 2200 nM top; notes: 60-bp whole probe; together with: salmon DNA 0.4 mg/ml; baseline: random background probes; reading: higher = stronger binding; shared flanks, not repeated: GCCTAGCAC … GTCTTGATTCGCTTGACGCTGCTG
# Target: Interferon regulatory factor 7, full length, phosphomimetic (IRF7, Homo sapiens, UniProt Q92985, residues 1-503, S471D/S472D/S475D/S476D/S477D/S483D/S484D/S487D)
# Residues (chain): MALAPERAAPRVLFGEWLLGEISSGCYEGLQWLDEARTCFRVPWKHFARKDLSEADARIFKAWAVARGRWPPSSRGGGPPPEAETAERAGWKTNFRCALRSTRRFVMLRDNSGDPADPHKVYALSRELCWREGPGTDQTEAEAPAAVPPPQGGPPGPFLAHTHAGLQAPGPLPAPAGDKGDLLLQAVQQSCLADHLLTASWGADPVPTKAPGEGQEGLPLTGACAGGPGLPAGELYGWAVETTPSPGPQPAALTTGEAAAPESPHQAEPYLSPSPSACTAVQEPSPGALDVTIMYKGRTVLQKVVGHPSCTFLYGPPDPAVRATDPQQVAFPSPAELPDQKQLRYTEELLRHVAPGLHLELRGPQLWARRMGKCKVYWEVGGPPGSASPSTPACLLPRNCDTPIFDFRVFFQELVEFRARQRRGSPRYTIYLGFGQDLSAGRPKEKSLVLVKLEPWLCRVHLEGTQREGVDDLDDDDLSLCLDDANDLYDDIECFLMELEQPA
Strand,fitted relative affinity
TTAGATTTCAGTCCCGATTAGTGCTAG,0.764 z-score
GACGGACAGGACTTTCGGGACGTGCTA,1.94 z-score
TCAACTCTCTAATTTTGAGAGTGCTAG,0.129 z-score
TTAGGTATCGACACTGGGTGAGTGCTA,-0.109 z-score
TTAGGGTTCGGGTATCGGTTAGTGCTA,0.655 z-score
TTACGTTTCCTTCTCCTTTAGTGCTAG,4.88 z-score
GACGTACTGAGTCTCGAGACGTGCTAG,0.285 z-score
GACGATCTCAGTTTCGTGACGTGCTAG,2.45 z-score
TTTACTCTCTACATGGGTATGTGCTAG,1.33 z-score
TTAGATATCAGACTGGATTTGTGCTAG,-0.159 z-score
GAGGATCTCAGTATCGAGACGTGCTAG,-0.0574 z-score
GACGGGCTGCTTCTCCTGACGTGCTAG,-0.363 z-score
TTAGGTAACGGTTTCGGTTAGTGCTAG,5.21 z-score
GCTAGTATGTTCCTTATTTAAGTGCTA,0.62 z-score
GACGGTATCCTTCTACTGACGTGCTAG,1.09 z-score
GACGATCTGAGTTTCGAGACGTGCTAG,2.21 z-score
GACGCTATCGGACTGGGGACGTGCTAG,-0.109 z-score
TTAGGTTTCGGGTTTCGATTAGTGCTA,9.86 z-score
CCCTATTTAAGGCTAGGCACGTGCTAG,0.507 z-score
CACACTTTCCCCTTCCTAGTGTGCTAG,5.39 z-score
TCAAATTTCCCTCTGCTACTGTGCTAG,1.56 z-score
GACGGTATCGACTATCCGGACGTGCTA,0.653 z-score
TTAGATCTCGGTTTCGGTTAGTGCTAG,6.63 z-score
GACGATTTCTGTTTCGAGACGTGCTAG,5.02 z-score
TCATTTTTTTTCATCATTGCGTGCTAG,1.69 z-score

# Repeated from above (sample 5):
Modification,mean fluorescence intensity [a.u.]
2'F-ANA at 3 4 5 6 7 9 11 14 15,51.3
2'F-ANA at 3 5 6 7 11 12,162
2'F-ANA at 1 2 3 4 5 7 8 9 10 11 12 13 14 15,49.1
2'F-ANA at 1 5 7 8 10 12 13,50.6
2'F-ANA at 2 14 15,169
2'F-ANA at 2 3 4 5 8 10 11 13 15,68.5
2'F-ANA at 1 2 3 4 10 11 13 14,66.3
2'F-ANA at 3 4 7 9 10,300
2'F-ANA at 1 4 7 10 11 12,56.4
2'F-ANA at 2 4 7 8 9 13 15,209
2'F-ANA at 3 4 5 6 8 10 14 15,62.1
2'F-ANA at 2 4 5 6 8 9 12 14 15,46.8
